Measured values gathered from unrelated publications.
Every numbered part comes from another study and shows a few of its results, in no order. Values joined by “and” are separate records of one study, mostly repeats; a detail may differ.
UniProt P00519, sequence (whole entry, unmodified, looked up): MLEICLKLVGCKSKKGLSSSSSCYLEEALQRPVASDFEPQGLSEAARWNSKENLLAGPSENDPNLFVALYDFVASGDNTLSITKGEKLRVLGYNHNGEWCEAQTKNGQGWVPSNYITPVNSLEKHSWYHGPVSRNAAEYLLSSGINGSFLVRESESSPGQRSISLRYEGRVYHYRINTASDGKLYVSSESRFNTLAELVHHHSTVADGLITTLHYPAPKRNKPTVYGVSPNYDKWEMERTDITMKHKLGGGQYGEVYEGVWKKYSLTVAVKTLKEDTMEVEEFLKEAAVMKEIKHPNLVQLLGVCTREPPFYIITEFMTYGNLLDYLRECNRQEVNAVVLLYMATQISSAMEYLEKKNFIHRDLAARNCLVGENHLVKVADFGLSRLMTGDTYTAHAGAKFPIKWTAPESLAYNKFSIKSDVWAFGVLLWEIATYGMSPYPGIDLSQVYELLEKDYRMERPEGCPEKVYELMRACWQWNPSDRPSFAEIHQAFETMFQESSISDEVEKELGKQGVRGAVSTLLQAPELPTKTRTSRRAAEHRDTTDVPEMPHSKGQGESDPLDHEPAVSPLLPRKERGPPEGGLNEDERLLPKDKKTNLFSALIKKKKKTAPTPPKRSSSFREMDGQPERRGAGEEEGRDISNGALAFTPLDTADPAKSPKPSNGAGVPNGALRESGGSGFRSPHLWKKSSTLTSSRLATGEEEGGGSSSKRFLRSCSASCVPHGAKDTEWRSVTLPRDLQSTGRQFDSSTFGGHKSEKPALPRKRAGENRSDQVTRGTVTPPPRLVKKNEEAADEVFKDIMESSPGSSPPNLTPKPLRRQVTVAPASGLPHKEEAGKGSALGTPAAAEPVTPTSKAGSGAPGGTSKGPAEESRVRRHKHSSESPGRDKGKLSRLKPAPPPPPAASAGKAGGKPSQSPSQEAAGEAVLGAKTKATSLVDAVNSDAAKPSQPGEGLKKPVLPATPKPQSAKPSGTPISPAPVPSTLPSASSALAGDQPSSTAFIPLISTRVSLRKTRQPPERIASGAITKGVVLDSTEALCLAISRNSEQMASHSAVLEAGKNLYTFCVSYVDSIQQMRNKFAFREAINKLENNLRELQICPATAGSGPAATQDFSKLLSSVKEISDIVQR
UniProt Q07912, sequence (whole entry, looked up): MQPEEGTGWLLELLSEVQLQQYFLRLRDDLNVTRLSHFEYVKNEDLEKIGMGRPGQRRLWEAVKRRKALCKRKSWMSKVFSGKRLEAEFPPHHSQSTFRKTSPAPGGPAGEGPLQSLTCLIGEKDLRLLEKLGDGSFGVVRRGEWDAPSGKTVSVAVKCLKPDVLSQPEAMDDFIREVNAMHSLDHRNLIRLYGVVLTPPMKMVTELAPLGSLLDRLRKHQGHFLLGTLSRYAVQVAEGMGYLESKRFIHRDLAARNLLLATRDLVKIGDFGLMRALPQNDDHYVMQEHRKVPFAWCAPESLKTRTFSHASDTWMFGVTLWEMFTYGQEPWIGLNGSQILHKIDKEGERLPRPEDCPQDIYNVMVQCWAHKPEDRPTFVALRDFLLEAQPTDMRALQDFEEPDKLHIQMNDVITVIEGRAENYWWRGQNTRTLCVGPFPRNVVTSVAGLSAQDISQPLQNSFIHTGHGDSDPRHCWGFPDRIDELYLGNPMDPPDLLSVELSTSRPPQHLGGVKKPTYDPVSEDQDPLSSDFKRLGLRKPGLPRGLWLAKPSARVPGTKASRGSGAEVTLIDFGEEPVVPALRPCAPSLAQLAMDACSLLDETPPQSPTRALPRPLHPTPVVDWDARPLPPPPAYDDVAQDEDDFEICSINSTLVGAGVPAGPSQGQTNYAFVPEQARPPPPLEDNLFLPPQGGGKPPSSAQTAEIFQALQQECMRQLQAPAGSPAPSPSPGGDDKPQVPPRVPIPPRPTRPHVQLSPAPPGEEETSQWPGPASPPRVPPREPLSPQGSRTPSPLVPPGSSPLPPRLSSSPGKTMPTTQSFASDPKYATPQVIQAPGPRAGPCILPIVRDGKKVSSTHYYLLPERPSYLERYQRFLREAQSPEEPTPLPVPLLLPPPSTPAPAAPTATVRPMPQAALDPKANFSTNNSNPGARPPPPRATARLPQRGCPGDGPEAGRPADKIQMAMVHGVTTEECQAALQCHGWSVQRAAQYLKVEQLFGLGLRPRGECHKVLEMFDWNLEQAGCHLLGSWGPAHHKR
UniProt P14616, sequence (whole entry, looked up): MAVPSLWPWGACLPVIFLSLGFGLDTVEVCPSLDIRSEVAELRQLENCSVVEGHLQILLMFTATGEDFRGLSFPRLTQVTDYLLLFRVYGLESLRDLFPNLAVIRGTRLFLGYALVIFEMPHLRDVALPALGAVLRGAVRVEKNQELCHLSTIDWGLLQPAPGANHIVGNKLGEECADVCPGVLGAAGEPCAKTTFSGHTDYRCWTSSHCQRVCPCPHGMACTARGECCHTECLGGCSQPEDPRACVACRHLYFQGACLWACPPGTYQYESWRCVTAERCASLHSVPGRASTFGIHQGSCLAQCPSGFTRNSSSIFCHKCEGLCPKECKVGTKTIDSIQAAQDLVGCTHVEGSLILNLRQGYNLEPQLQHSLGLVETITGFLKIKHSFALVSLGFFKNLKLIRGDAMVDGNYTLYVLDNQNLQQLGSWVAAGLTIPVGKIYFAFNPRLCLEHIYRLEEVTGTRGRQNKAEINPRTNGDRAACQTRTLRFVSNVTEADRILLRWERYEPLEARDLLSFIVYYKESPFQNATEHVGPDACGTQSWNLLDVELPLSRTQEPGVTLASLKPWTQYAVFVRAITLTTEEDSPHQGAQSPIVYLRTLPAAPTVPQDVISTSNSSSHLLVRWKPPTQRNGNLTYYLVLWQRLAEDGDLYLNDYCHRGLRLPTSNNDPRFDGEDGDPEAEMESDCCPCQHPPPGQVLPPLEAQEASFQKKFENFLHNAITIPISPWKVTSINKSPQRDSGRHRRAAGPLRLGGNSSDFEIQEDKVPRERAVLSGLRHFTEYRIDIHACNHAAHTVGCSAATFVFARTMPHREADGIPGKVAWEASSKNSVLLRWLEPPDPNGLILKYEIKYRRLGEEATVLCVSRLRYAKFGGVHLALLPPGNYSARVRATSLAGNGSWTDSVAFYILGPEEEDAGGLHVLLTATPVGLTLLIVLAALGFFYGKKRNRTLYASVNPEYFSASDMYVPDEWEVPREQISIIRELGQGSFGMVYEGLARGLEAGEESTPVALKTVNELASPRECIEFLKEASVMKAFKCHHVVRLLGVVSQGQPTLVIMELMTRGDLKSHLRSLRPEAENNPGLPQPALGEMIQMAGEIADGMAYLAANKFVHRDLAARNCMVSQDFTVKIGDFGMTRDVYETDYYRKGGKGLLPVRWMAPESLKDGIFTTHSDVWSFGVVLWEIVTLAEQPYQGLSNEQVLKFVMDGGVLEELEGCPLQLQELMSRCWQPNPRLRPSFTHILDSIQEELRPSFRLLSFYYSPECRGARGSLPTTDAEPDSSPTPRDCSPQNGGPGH

Series 1 — effect on: binding; mode: competitor; method: NanoBRET; cells: HEK293; endpoint: normalized BRET
SMILES: C=CC(=O)N1CCN(c2nc(OC[C@@H]3CCCN3C)nc3c2CCN(c2cccc4cccc(C)c24)C3)C[C@@H]1CC#N
KRAS Q61H: GTPase KRas (KRAS, Homo sapiens, UniProt P01116, Q61H)
KRAS G12D: GTPase KRas (KRAS, Homo sapiens, UniProt P01116, G12D)
HRAS: GTPase HRas (HRAS, Homo sapiens, UniProt P01112)
KRAS G13D: GTPase KRas (KRAS, Homo sapiens, UniProt P01116, G13D)
KRAS Q61H; 247 nM: 71.5% and 80.1% and 65.4%
KRAS Q61H; 9.14 nM: 95.7% and 97.4% and 95.2%
KRAS G12D; 2.22 µM: 74.6% and 49%
HRAS; 625 nM: 118%
HRAS; 1.02 nM: 96% and 97.1%
KRAS G12D; 27.4 nM: 91.8% and 88.1%
HRAS; 2.44 nM: 107%
KRAS G13D; 741 nM: 59.5% and 52.3% and 61.6%
KRAS G13D; 9.14 nM: 97.5% and 87.6% and 92.6%
HRAS; 9.14 nM: 92.5% and 98.8%

Series 2 — tested at: 1 µM; endpoint: remaining binding
Structure (SMILES): CCC1(c2cccc(-c3cn(C)nc3C)c2)C2=C(Nc3n[nH]cc31)C(F)C(C)(C)CC2=O (single isomer, unassigned)
INSRR (Homo sapiens, UniProt P14616); kinase binding, KINOMEscan; baseline: DMSO control: 100%
PIK3CD (Homo sapiens, UniProt O00329); binding, competition with immobilised ligand: 100%
RET (Homo sapiens, UniProt P07949, V804M); binding, competition with immobilised ligand: 89%
HCK (Homo sapiens, UniProt P08631); kinase binding, KINOMEscan; baseline: DMSO control: 100%
PI4KB (Homo sapiens, UniProt Q9UBF8); kinase binding, KINOMEscan; baseline: DMSO control: 100%
PAK2 (Homo sapiens, UniProt Q13177); binding, competition with immobilised ligand: 100%
FLT3 (Homo sapiens, UniProt P36888, R834Q); kinase binding, KINOMEscan; baseline: DMSO control: 100%
Tyrosine-protein kinase ABL1, phosphorylated (ABL1, Homo sapiens, UniProt P00519, F317L); binding, competition with immobilised ligand: 98%
MAPK10 (Homo sapiens, UniProt P53779); kinase binding, KINOMEscan; baseline: DMSO control: 98%
HASPIN (Homo sapiens, UniProt Q8TF76); binding, competition with immobilised ligand: 95%
PAK5 (Homo sapiens, UniProt Q9P286); binding, competition with immobilised ligand: 66%
GRK4 (Homo sapiens, UniProt P32298); binding, competition with immobilised ligand: 100%
Tyrosine-protein kinase ABL1, non-phosphorylated (ABL1, Homo sapiens, UniProt P00519, F317L); kinase binding, KINOMEscan; baseline: DMSO control: 100%
CAMKK2 (Homo sapiens, UniProt Q96RR4); kinase binding, KINOMEscan; baseline: DMSO control: 100%
Ribosomal protein S6 kinase alpha-2, N-terminal kinase domain (RPS6KA2, Homo sapiens, UniProt Q15349); binding, competition with immobilised ligand: 100%
TNK2 (Homo sapiens, UniProt Q07912); kinase binding, KINOMEscan; baseline: DMSO control: 99%
Non-receptor tyrosine-protein kinase TYK2, JH1 domain (TYK2, Homo sapiens, UniProt P29597); kinase binding, KINOMEscan; baseline: DMSO control: 100%
SLK (Homo sapiens, UniProt Q9H2G2); binding, competition with immobilised ligand: 100%
CSNK1G1 (Homo sapiens, UniProt Q9HCP0); kinase binding, KINOMEscan; baseline: DMSO control: 100%

Series 3 — time: 6 days; endpoint: viability
SMILES: Cc1ncsc1-c1ccc(C(CO)NC(=O)C2CC(O)CN2C(=O)C(NC(=O)c2ccc(COc3c(-c4c(C)c(F)cc5[nH]ncc45)c(C4CC4)cc4c(N5CC6CC5CN6)nc(OC5CCOCC5)nc34)cc2)C(C)C)cc1 (centres unmarked)
AsPC-1; CellTiter-Glo; 100 nM: 42.3% and 64.9% and 75.9%
AsPC-1; CellTiter-Glo; 30 nM: 85.2% and 76.7% and 85%
ASPC1; cell growth or viability, ATP luminescence; 1 nM: 72.5% and 88% and 75.4% and 92.2% and 89.3% and 95.4%
AsPC-1; CellTiter-Glo; 3 µM: 5.66% and 5.08% and 4.37%
AsPC-1; CellTiter-Glo; 300 pM: 90.6% and 90.3% and 84.8%
ASPC1; cell growth or viability, ATP luminescence; 10 nM: 80.6% and 88% and 94.2% and 86.4% and 87.5% and 80.1%
AsPC-1; CellTiter-Glo; 10 µM: 5.1% and 4.02% and 4.93%

Series 4 — effect on: thermal unfolding; method: differential scanning fluorimetry; tested at: 5.5 µM; reading: higher = more unfolded; endpoint: SYPRO Orange fluorescence
Structure (SMILES): C[C@@H]1CN(c2ccc(-c3cc(C(=O)NCCOCCOCCOCCOCCNC(=O)/C=C/c4[nH]cc(C(=O)N[C@@H](CC(N)=O)c5ccc(F)c(Cl)c5)c4-c4ccc(Cl)cc4F)ccc3F)cc2NC(=O)c2c[nH]c(=O)cc2C(F)(F)F)C[C@H](C)N1C
DCAF1: DDB1- and CUL4-associated factor 1 (DCAF1, Homo sapiens, UniProt Q9Y4B6)
UniProt Q9Y4B6, sequence (whole entry, looked up): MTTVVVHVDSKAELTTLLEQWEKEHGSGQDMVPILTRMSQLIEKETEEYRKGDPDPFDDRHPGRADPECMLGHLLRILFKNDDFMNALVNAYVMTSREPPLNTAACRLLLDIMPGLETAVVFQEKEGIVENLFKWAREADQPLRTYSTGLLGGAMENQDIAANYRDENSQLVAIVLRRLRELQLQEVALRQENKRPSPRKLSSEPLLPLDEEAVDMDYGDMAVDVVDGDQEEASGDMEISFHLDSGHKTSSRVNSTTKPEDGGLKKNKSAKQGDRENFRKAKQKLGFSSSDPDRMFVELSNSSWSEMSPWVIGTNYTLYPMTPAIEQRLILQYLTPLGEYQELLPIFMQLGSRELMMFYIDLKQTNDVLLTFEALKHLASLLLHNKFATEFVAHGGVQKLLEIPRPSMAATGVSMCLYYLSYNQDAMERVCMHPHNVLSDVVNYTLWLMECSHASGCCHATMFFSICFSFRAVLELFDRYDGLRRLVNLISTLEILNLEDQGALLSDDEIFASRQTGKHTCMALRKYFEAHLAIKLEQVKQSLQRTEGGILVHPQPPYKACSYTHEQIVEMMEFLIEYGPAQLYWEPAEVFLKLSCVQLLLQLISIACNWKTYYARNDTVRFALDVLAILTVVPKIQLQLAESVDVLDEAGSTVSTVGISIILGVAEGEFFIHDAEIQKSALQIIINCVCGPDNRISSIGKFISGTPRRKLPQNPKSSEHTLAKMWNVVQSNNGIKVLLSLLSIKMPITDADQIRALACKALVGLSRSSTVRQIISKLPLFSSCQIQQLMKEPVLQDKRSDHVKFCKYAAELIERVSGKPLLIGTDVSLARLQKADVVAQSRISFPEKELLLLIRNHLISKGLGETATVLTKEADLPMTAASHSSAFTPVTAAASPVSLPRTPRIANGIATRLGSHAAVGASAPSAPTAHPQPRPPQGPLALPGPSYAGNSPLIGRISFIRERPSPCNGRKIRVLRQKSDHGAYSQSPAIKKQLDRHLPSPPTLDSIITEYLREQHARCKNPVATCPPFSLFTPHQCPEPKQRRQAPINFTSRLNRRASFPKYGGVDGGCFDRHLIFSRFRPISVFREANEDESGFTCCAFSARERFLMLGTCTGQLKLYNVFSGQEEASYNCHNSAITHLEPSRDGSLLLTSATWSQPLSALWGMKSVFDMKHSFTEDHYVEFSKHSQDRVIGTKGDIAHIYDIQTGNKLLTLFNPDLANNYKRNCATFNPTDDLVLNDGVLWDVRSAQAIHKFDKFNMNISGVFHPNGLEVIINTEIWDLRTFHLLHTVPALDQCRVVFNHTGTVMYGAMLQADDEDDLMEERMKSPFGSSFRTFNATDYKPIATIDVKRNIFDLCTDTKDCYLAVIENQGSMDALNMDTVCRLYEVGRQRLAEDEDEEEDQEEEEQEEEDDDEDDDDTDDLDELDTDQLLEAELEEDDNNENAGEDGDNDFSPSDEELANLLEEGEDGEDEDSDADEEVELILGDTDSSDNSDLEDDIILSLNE
WDR5: WD repeat-containing protein 5 (WDR5, Homo sapiens, UniProt P61964)
DCAF1; 85.01 °C: 40200 a.u.
DCAF1; 56.41 °C: 25200 a.u.
DCAF1; 72.41 °C: 52900 a.u.
WDR5; 44.8 °C: 15300 a.u.
DCAF1; 30.8 °C: 9610 a.u.
WDR5; 52.2 °C: 16800 a.u.
WDR5; 44.4 °C: 15200 a.u.
WDR5; 73.41 °C: 22000 a.u.
WDR5; 40.8 °C: 14000 a.u.
DCAF1; 67.41 °C: 58600 a.u.
WDR5; 27.2 °C: 13000 a.u.

A few entries again (series 2):
RET (Homo sapiens, UniProt P07949, V804M); binding, competition with immobilised ligand: 89%
HCK (Homo sapiens, UniProt P08631); kinase binding, KINOMEscan; baseline: DMSO control: 100%
PI4KB (Homo sapiens, UniProt Q9UBF8); kinase binding, KINOMEscan; baseline: DMSO control: 100%
